Results from different studies.
Parts stem from different laboratories: compare values within a part only. Positions count from the first letter of the parent shown.
Chain of UniProt O75116 (whole entry, looked up): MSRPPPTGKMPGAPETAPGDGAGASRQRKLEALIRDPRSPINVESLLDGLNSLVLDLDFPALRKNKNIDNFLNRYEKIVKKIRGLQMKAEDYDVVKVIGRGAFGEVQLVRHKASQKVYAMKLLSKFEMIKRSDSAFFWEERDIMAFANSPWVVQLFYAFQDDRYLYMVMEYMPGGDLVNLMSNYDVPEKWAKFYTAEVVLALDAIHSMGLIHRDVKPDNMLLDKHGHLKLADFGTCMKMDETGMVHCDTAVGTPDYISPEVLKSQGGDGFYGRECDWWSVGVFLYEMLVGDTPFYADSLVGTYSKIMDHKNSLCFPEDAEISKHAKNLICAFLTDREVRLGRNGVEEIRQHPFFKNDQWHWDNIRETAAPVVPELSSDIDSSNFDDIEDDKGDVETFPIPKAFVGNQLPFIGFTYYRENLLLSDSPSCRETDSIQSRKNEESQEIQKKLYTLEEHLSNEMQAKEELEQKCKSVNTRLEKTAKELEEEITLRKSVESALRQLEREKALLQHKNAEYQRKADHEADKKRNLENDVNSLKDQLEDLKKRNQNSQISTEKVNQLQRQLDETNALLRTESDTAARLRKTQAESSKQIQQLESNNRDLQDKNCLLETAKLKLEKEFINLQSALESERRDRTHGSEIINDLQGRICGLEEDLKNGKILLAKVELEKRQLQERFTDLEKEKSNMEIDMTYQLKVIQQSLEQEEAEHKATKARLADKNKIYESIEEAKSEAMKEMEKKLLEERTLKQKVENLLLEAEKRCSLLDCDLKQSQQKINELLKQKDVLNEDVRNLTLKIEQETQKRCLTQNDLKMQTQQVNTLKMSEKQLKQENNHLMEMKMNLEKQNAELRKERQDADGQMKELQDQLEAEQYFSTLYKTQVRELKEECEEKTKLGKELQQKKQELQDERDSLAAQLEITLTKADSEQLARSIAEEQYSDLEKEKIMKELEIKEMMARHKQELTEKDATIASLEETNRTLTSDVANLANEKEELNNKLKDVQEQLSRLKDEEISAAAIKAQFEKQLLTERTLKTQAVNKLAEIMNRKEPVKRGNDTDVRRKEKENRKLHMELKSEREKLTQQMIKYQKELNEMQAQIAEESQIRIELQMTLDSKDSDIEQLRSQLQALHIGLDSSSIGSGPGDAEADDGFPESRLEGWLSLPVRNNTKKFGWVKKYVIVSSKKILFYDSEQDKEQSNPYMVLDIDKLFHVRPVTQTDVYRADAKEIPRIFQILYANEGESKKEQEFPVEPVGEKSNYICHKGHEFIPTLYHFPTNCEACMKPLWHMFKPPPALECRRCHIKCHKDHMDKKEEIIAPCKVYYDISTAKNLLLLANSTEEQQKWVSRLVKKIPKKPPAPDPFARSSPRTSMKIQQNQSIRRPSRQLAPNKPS
Chain of UniProt P50613 (whole entry, looked up): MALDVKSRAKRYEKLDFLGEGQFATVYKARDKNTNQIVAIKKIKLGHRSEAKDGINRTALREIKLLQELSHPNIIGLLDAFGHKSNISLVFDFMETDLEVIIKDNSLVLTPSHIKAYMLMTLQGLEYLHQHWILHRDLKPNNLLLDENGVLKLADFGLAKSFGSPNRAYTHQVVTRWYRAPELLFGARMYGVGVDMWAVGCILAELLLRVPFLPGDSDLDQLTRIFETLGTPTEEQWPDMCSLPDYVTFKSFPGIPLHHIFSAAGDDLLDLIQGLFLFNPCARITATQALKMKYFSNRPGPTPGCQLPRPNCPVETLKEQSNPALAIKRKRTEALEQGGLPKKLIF
Chain of UniProt Q8IU85 (whole entry, looked up): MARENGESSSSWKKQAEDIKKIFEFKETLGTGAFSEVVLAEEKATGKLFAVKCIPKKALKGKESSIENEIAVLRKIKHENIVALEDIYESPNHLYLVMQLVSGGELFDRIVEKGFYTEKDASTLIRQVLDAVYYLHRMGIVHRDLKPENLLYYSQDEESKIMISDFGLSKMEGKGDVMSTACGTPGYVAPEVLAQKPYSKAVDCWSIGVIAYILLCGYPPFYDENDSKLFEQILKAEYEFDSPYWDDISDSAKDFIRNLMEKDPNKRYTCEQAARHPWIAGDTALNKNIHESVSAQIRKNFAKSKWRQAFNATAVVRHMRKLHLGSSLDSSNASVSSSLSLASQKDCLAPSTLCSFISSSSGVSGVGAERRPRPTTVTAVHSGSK
Chain of UniProt P28222 (whole entry, looked up): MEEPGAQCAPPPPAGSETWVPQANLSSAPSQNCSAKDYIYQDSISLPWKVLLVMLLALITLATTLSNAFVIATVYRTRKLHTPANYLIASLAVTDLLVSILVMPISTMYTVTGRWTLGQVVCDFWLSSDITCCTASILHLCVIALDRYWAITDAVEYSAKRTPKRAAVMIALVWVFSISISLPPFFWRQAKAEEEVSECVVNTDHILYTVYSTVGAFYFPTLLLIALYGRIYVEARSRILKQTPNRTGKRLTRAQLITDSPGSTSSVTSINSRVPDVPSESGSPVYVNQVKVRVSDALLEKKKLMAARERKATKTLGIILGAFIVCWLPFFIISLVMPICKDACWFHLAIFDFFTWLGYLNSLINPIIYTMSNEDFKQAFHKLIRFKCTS
Chain of UniProt P19784 (whole entry, looked up): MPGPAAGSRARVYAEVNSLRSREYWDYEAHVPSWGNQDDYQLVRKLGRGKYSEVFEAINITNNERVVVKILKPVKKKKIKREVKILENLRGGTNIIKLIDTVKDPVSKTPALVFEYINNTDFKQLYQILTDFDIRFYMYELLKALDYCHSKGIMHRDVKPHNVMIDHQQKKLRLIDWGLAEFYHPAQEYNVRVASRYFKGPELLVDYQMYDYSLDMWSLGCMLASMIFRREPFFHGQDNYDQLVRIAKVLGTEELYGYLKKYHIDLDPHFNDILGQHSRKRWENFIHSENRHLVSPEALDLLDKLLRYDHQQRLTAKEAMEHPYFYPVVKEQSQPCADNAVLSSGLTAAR
Chain of UniProt Q15139 (whole entry, looked up): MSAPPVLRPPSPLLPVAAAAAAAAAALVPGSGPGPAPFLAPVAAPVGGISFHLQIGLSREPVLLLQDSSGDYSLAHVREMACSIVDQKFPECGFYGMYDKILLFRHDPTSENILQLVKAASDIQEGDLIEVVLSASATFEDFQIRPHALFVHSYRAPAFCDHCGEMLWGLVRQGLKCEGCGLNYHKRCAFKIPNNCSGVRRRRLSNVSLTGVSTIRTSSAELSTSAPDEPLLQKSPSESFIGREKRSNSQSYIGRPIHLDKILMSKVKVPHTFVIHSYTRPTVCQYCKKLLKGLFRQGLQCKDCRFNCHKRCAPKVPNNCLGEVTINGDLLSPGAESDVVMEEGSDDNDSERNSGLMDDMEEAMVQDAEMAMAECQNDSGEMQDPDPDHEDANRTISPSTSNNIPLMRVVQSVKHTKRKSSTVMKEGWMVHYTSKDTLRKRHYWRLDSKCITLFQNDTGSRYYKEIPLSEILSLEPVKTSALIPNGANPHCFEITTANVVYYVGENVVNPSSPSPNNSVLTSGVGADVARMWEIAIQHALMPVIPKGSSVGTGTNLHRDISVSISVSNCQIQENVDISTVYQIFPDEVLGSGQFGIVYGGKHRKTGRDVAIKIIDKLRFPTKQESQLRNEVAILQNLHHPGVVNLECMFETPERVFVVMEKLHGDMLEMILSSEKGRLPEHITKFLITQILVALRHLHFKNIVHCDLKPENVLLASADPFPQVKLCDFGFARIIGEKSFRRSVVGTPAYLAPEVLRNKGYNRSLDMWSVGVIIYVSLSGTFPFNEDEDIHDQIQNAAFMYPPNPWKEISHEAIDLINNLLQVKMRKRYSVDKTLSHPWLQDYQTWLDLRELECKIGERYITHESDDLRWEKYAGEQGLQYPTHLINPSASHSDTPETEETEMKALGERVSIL
Chain of UniProt P41279 (whole entry, looked up): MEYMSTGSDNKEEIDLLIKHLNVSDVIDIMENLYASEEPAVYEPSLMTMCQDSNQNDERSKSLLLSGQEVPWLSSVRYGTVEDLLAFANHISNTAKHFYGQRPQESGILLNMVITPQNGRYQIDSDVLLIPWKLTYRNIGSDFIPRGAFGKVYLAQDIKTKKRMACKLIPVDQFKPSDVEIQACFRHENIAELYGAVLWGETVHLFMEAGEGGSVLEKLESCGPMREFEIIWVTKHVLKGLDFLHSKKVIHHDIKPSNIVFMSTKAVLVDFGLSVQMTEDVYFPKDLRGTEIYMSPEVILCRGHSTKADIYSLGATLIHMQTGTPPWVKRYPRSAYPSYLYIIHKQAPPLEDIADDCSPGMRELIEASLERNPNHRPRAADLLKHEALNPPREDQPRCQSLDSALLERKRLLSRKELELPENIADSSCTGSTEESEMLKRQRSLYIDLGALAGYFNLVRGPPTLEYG
Chain of UniProt Q96NX5 (whole entry, looked up): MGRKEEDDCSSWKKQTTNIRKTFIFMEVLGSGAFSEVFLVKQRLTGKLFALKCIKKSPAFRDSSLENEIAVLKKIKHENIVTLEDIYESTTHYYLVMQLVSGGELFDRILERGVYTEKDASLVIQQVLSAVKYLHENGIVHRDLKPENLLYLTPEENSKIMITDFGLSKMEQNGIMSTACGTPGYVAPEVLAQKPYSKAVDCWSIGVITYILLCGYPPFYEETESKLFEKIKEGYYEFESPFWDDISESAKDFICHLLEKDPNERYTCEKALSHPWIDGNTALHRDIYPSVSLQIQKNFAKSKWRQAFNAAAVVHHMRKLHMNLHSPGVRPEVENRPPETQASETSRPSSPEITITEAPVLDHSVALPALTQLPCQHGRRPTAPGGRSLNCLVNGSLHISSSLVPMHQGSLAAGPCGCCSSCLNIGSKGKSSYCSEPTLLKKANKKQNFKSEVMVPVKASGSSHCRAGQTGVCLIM

Series 1 — host: human; matrix: microsomes or S9; tested at: 2 µM; time: 0.5 h
With `O=C(c1c2c(nc3ccccc13)C(=O)N(C1CCCCC1)C2)N1CCN(c2ccccn2)CC1` the remaining compound was 66.3%.
For `CC(C)(C)OC(=O)Nc1cccc(C(=O)NCc2c(F)cccc2F)n1`, the remaining compound was > 99%.
`COc1ccc(OC)c(Nc2nc(CC(=O)NCCc3c[nH]c4ccccc34)cs2)c1` has a remaining compound of 1.26%.
`Fc1ccc(-c2ccnc3nc(-c4ccncc4)nn23)cc1` gave a remaining compound of > 99%.
The remaining compound of `CCn1cc(C(=O)NCCNC(=O)c2cn(CC)nc2C)c(C)n1` is reported as 96.9%.
`O=C1CC2(CCN(C(=O)CSC34CC5CC(CC(C5)C3)C4)CC2)CN1` has a remaining compound of 2.54%.
The remaining compound of `CCCNS(=O)(=O)c1ccc(CCC(=O)N2CCC(C(=O)OCC)CC2)cc1` is reported as 6.38%.
`CCC(C)NC(=O)Cn1nc(C(=O)N2CCCC2)ccc1=O` (stereo not drawn) has a remaining compound of 76%.

Series 2 — read-out: enzyme activity; mode: inhibitor; tested at: 0.5 µM; baseline: control
Structure (SMILES): COc1ccc(CNC(=O)Nc2ncc([N+](=O)[O-])s2)cc1
It gave 99.8% for remaining activity (ROCK2 (Homo sapiens, UniProt O75116)).
For CAMK1D (Homo sapiens, UniProt Q8IU85): remaining activity read 112%.
For CSNK2A2 (Homo sapiens, UniProt P19784): remaining activity read 92.9%.
It gave 89.4% for remaining activity (NEK9 (Homo sapiens, UniProt Q8TD19)).
It gave 94.8% for remaining activity (CDK7 (Homo sapiens, UniProt P50613)).
For PRKD1 (Homo sapiens, UniProt Q15139): remaining activity read 104%.
MAP3K8 (Homo sapiens, UniProt P41279) — remaining activity: 96.2%.
The remaining activity was 99.6% (CAMK1G (Homo sapiens, UniProt Q96NX5)).

Further values, each from its own experiment
P1: PafA, mature enzyme, eGFP fusion (Elizabethkingia meningoseptica, UniProt Q9KJX5); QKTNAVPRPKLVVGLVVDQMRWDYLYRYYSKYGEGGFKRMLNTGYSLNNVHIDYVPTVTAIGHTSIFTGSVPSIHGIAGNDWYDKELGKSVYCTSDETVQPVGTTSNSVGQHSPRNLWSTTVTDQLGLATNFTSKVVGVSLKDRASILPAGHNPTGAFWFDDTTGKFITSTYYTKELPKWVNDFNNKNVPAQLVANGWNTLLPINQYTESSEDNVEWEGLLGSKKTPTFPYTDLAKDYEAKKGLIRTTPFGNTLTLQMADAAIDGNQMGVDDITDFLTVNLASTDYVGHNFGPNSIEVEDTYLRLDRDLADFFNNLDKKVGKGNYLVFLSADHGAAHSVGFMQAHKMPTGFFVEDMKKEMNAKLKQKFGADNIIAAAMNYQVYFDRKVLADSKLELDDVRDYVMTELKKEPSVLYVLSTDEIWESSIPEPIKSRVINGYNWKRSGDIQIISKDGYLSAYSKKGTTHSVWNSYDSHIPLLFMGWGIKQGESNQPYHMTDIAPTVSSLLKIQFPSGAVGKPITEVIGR
For `CNC(=N)NCCC[C@H](NC(=O)[C@H](CC(C)C)NC(=O)NNC(=O)[C@H](Cc1ccccc1)NC(=O)[C@H](CO)NC(=O)[C@H](CC(N)=O)NC(=O)[C@@H](Cc1ccncc1)NC(=O)[C@H](N)Cc1ccc(O)cc1)C(=O)N[C@@H](Cc1ccccc1)C(N)=O`, the inhibition was 29.3% (HTR1B (Homo sapiens, UniProt P28222); ligand displacement, radioligand; 10 µM).
`P1 V136G`: “oxyanion analog dissociation constant” 448 nM (vanadate, free oxyanion; microfluidic competitive inhibition; in vitro, cell-free expressed; not given, derived from inhibition constants, unchanged parent 676 nM; lower = stronger binding).

A few entries again (series 1):
The remaining compound of `CCn1cc(C(=O)NCCNC(=O)c2cn(CC)nc2C)c(C)n1` is reported as 96.9%.
`O=C1CC2(CCN(C(=O)CSC34CC5CC(CC(C5)C3)C4)CC2)CN1` has a remaining compound of 2.54%.
The remaining compound of `CCCNS(=O)(=O)c1ccc(CCC(=O)N2CCC(C(=O)OCC)CC2)cc1` is reported as 6.38%.
